Measured values of several laboratories.
± marks the error that the study gave.
Cell line: A549

With `CC(=O)O[C@@H]1CC[C@@]2(C)[C@@H](CC[C@]3(C)[C@@H]2C(=O)C=C2[C@@H]4[C@@H](C)[C@H](C)CC[C@]4(C)CC[C@]23C)[C@@]1(C)C(=O)NCCNC(=O)CCCCC[P+](c1ccccc1)(c1ccccc1)c1ccccc1` the IC50 was greater than 30 µM (cell growth or viability, MTT; 48 h).
With `O=C1c2ccc3c4cccc5cccc(c6ccc(c2c36)C(=O)N1CCN1CCCCC1)c54` the IC50 was 38.4 µM (cell growth or viability, SRB; 72 h).
The IC50 of `C[C@H]1[C@H](C)CC[C@]2(C)CC[C@]3(C)C(=CC(=O)[C@@H]4[C@@]5(C)CC[C@@H](O)[C@](C)(C(=O)NCCNC(=O)c6ccccc6)[C@@H]5CC[C@]43C)[C@H]12` is reported as greater than 30 µM (cell growth or viability, MTT; 48 h).
For `CC(=O)[C@@H]1CCCN1C(=O)[C@@H]1CCCN1C(=O)[C@H](Cc1ccccc1)N(C)C(=O)OC(C)(C)C`, the IC50 was 2 µM (cell growth or viability, SRB).
`C=C(C)[C@@H]1CC[C@]2(C(=O)O)CC[C@]3(C)[C@H](CC[C@@H]4[C@@]5(C)CC[C@H](O[C@@H]6O[C@@H](C)[C@H](O)[C@@H](O)[C@H]6O)C(C)(C)[C@@H]5CC[C@]43C)[C@@H]12` gave an IC50 of 3.3 µM (cell growth or viability, fluorescence; 48 h).
The IC50 of `Cc1cc(C)c([N+]#[C][Pd-]([Cl])([Cl])=[C](Nc2cccc(CN[C](NC(C)(C)C)=[Au][Cl])c2)Nc2c(C)cc(C)cc2C)c(C)c1` is reported as greater than 100 µM (cell growth or viability).
With `C[N+]1(C)CC[NH2+][Pt-2]1([OH])([OH])([Cl])[Cl]` the IC50 was 111 µM (cell growth or viability, MTT; 96 h).
`COc1ccc(C2C([N+](=O)[O-])C(Cc3ccc(O)cc3)NC23C(=O)c2cccc4cccc3c24)cc1` (centres unmarked) gave an IC50 of 96.5 µM (cell growth or viability, MTT; 24 h).
With `Cc1cc(C)c(N=[C](NCc2cccc(N)c2)[AuH][Cl])c(C)c1` the IC50 was greater than 100 µM (cell growth or viability).
`Cc1c(C)c(C)[c-](C)c1C.O=[N+]([O-])c1ccnc(-c2[c-]cccc2)c1.[Cl-].[Ir+3]` gave an IC50 of 20.1 ± 0.3 µM (SRB; 24 h, 72 h recovery).
`Cc1cc(/C=C/C#N)cc(C)c1Oc1cc(Nc2ccc(C#N)cn2)nc2cnccc12` gave an IC50 of 26 ± 0.6 µM (48 h).
`O=C1CCCC2=C1C(c1cccs1)c1c([nH]c(=S)[nH]c1=S)O2` (centres unmarked) has an IC50 of 15.6 µM (cell growth or viability, MTT; 72 h).
`COc1ccc([C@@H]2CC(=O)c3c(O)cc(O[C@@H]4O[C@H](CO[C@@H]5O[C@@H](C)[C@H](O)[C@@H](O)[C@H]5O)[C@@H](O[C@H]5O[C@H](CO)[C@@H](O)[C@H](O)[C@H]5O)[C@H](O)[C@H]4O)cc3O2)cc1O` gave an IC50 of 88.8 µg/mL (cell growth or viability, trypan blue; 72 h).
`Cn1c2ccc(Cl)c(=O)c-2nc2ccccc21` gave an IC50 of 0.76 µM (cell growth or viability, CCK-8; 72 h).
`COc1c(OCc2ccccc2)cc2oc3cc(OCc4ccccc4)c(CC=C(C)C)c(O)c3c(=O)c2c1CC=C(C)C` gave an IC50 of 10.3 µM (cell growth or viability; 48 h).
With `COc1ccc(C2=NN(C3=NC(=O)/C(=C/c4ccc(Cl)cc4)S3)C(c3ccc(F)cc3)C2)cc1` (centres unmarked) the IC50 was 89 µM (cell growth or viability, MTT).
The IC50 of `N=C(N)Nc1nc2ccccc2s1` is reported as greater than 200 µM (cell growth or viability, MTT; 24 h).
For `COc1cc(N(C)CCN(C)C)c(NC(=O)/C=C/c2ccc3c(c2)OCCO3)cc1Nc1nccc(-c2cn(C)c3ccccc23)n1`, the IC50 was 0.207 µM (cell growth or viability, MTT; 72 h).
With `Cc1nnc(NC(=O)CSc2nnc(-c3ccc4c(c3)OCCO4)o2)s1` the IC50 was 23.8 µM (cell growth or viability, MTT; 36 h).
For `C[O][Pt-2]([NH3+])([NH3+])([Cl])([Cl])[O]C(=O)CCC(=O)OCCO`, the IC50 was 132 µM (cell growth or viability, MTT; 96 h).
For `CCCCCCCC(=O)Oc1c(C)c(OC)c2c(c1C)OC(=O)[C@@H](CCCCCC)[C@]2(O)/C=C/c1ccccc1` (racemic), the IC50 was greater than 50 µM (cell growth or viability, SRB; 72 h).
`CCCCCCCCC=CCCCCCCCC(=O)OC(COC(=O)Cc1c(C)n(C(=O)c2ccc(Cl)cc2)c2ccc(OC)cc12)COP(=O)([O-])OCC[N+](C)(C)C` (centres unmarked) has an IC50 of 42.2 µM (cell growth or viability, SRB; 72 h).
The IC50 of `[Cl-].[Cl-].[Ru+2].c1ccc(-c2ccnc3c2ccc2c(-c4ccccc4)ccnc23)cc1.c1cnc2c(c1)ccc1cccnc12.c1cnc2c(c1)ccc1cccnc12` is reported as 0.8 µM (resazurin; 72 h, added: indigo light 450 nm, 29.1 J/cm2).
The IC50 of `CC(C)c1cccc(C(C)C)c1[N+]#[C][Pd-]([Cl])([Cl])=[C](Nc1ccc(CN[C](NC(C)(C)C)=[Au][Cl])cc1)Nc1c(C(C)C)cccc1C(C)C` is reported as greater than 100 µM (cell growth or viability).
`N#Cc1cccc(-c2ccc(=O)n(Cc3cccc(-c4ncc(OCC5CCN(CCCCC(=O)Nc6cccc7c6C(=O)N(C6CCC(=O)NC6=O)C7=O)CC5)cn4)c3)n2)c1` (centres unmarked) has an IC50 of 0.413 µM (cell growth or viability, CCK-8; 72 h).
`COc1ccc(/C=C/C2=[N+]3C(=C(COC(C)=O)c4c(C)cc(/C=C/c5ccc(OC)cc5)n4[B-]3(F)F)C(C)=C2)cc1` gave an IC50 of 11 ± 3 µM (phototoxicity, resazurin; added: 645 nm light, 9.00 J/cm2).
The IC50 of `CCCC(CCC)C(=O)[O][Pt]([Cl])([Cl])[O]C(C)=O.N.N` is reported as 8.36 µM (cell growth or viability).
For `CCN1CCC2(CC1)C/C(=N\NC(=O)Nc1ccc(C)cc1)c1ccccc1O2`, the IC50 was 11.9 µM (cell growth or viability, MTT; 48 h).
`C=C(C)[C@@H]1CC[C@]2(C(=O)OCO/N=[N+](\[O-])N3CCCC3)CC[C@]3(C)[C@H](CC[C@@H]4[C@@]5(C)CC[C@H](OC(C)=O)C(C)(C)[C@@H]5CC[C@]43C)[C@@H]12` gave an IC50 of 7.44 µM (cell growth or viability, MTT; 72 h).
With `Cl.[Cl][Ru-]1[S+]=C(NC2CCCCC2)N[N+]1=Cc1ccc(N(c2ccccc2)c2ccccc2)cc1.c1ccccc1` the IC50 was 96.4 ± 5.6 µM (cytotoxicity, MTT; 24 h).
`N#Cc1c(F)c(F)c2nc(SCc3ccccc3)nc(N)c2c1F` gave an IC50 of 24.8 µM (cell growth or viability, MTT; 96 h).
For `C[OH+][Cu-2]12[O]C(c3cn(-c4ccccc4)nc3-c3ccccc3)=N[N+]1=C(C)c1c(cc(C)oc1=O)[O]2` (centres unmarked), the IC50 was 7.81 µM (cell growth or viability, MTT; 48 h).
With `COc1ccc(C(=O)c2cc(C(=O)c3cc(Cl)ccc3O)c[n+]3c2NCCCC3)cc1` the IC50 was 26.4 µM (cell growth or viability, MTT; 96 h).
`CC(C)=CCCC(C)(O)C1CCC2(C)C1C(O)CC1C3(C)CCC(OC4OC(COC(=O)CCCCCN5C(=O)C=CC5=O)C(O)C(OC(=O)CCCCCN5C(=O)C=CC5=O)C4O)C(C)(C)C3CCC12C` (centres unmarked) has an IC50 of 54.8 µM (cell growth or viability, MTT).
For `COc1ccc(/C=C/C2=[N+]3C(=C(C=O)c4c(C)c(Br)c(/C=C/c5ccc(OC)cc5)n4[B-]3(F)F)C(C)=C2Br)cc1`, the IC50 was greater than 100 µM (cell growth or viability, resazurin; dark).
The IC50 of `COc1ccc2cc([C@H](C)C(=O)[O][Pt-2]34([O]C(=O)[C@@H](C)c5ccc6cc(OC)ccc6c5)([NH2+][C@@H]5CCCC[C@H]5[NH2+]3)[O]C(=O)C(=O)[O]4)ccc2c1` is reported as 10.2 ± 1 µM (cell growth, MTT; 48 h).
`COc1ccc(C2=NN(C3=NC(=O)C(=Cc4ccc(O)cc4)S3)C(c3ccc(F)cc3)C2)cc1` (centres unmarked) has an IC50 of 3.92 µM (cell growth or viability, MTT).
The IC50 of `CCn1cc[n+](CC)[c]1[Au-]([Cl])([Cl])[Cl]` is reported as 23.6 µM (cell growth or viability, crystal violet; 72 h).
The IC50 of `S=c1[nH]c(=S)c2sc3sc4c(=S)[nH]c(=S)[nH]c4c3c2[nH]1` is reported as 5.67 µM (cell growth or viability, MTT).
The IC50 of `CC(=O)OC[C@]1(C)CCC[C@]2(C)[C@@H]1CC[C@@]13C[C@@H](C[C@H](O)[C@H]12)[C@H](C)C3=O` is reported as greater than 20 µM (cell growth or viability, MTT).
`COc1cc(-c2nc(N)[nH]c2C(=O)c2ccccc2)cc(OC)c1OC` gave an IC50 of 0.183 µM (cell growth or viability, SRB; 24 h).
For `C=C1CC23CC4C5C6(C)CC(O)CC57C(C2C(O)C1C(O)C37)N4C6` (centres unmarked), the IC50 was 17.7 µM (cell growth or viability, MTT).
`S=c1n(-c2ccccc2)c2c3ccccc3nc3[n+]2[n]1[Ir-3]12([S]3)([c]3ccccc3-c3sc4ccccc4[n+]31)[c]1ccccc1-c1sc3ccccc3[n+]12` gave an IC50 of greater than 50 µM (cell viability, MTT; dark).
For `CCN(CC)CCO/N=C1/C=C2CCC3C(CC[C@]4(C)/C(=C/c5ccccn5)CCC34)[C@@]2(C)CC1` (some centres unmarked), the IC50 was 26.6 µM (cell growth or viability, MTT; 72 h).

A few entries again:
The IC50 of `CC(C)c1cccc(C(C)C)c1[N+]#[C][Pd-]([Cl])([Cl])=[C](Nc1ccc(CN[C](NC(C)(C)C)=[Au][Cl])cc1)Nc1c(C(C)C)cccc1C(C)C` is reported as greater than 100 µM (cell growth or viability).
For `CC(=O)[C@@H]1CCCN1C(=O)[C@@H]1CCCN1C(=O)[C@H](Cc1ccccc1)N(C)C(=O)OC(C)(C)C`, the IC50 was 2 µM (cell growth or viability, SRB).
`COc1ccc(C2=NN(C3=NC(=O)C(=Cc4ccc(O)cc4)S3)C(c3ccc(F)cc3)C2)cc1` (centres unmarked) has an IC50 of 3.92 µM (cell growth or viability, MTT).
